Measured values of several laboratories.
Protocols differ between the studies behind these lines. ± marks the error that the study gave. In brackets after ≈: the same amount, converted by molar mass.

CC[C@H](C)[C@H](NC(=O)[C@H](Cc1ccc(O)cc1)NC(=O)[C@@H](NC(=O)[C@H](CCCNC(=N)N)NC(=O)[C@@H](N)CC(=O)O)C(C)C)C(=O)N[C@@H](Cc1c[nH]cn1)C(=O)N1CCC[C@H]1C(=O)O — Tmax (Beagle dog both sexes, plasma; subcutaneous, 10 mg/kg/day, day 0, median): 30 min
C=C/C=C/C[C@@H](C)[C@@H](O)[C@H]1C(=O)N[C@@H](CC)C(=O)N(C)CC(=O)N(C)[C@@H](CC(C)C)C(=O)N[C@@H](C(C)C)C(=O)N(C)[C@@H](CC(C)C)C(=O)N[C@@H](C)C(=O)N[C@H](C)C(=O)N(C)[C@@H](CC(C)C)C(=O)N(C)[C@@H](CC(C)C)C(=O)N(C)[C@@H](C(C)C)C(=O)N1C — food intake (rat, Wistar Kyoto, male; intraperitoneal, 0.5 mg/kg/day, day 18): 19.5 ± 1.6 g/24 h
CC(C)[C@@H]1NC(=O)CNC(=O)[C@H](CC(N)=O)NC(=O)[C@H](CCCNC(=N)N)NC(=O)[C@H](Cc2ccc(O)cc2)NC(=O)[C@H](C(C)C)NC(=O)[C@@H](NC(=O)[C@@H](NC(=O)[C@H](CC(N)=O)NC(=O)[C@H](Cc2c[nH]c3ccccc23)NC(=O)[C@H](C)NC(=O)[C@H](Cc2ccccc2)NC(=O)CNC(=O)[C@H](CCCCN)NC(=O)[C@H](Cc2ccccc2)NC(=O)[C@H](Cc2ccccc2)NC(=O)[C@H](CCCCN)NC(=O)OCC2c3ccccc3-c3ccccc32)C(C)C)CSSC[C@@H](C(=O)N[C@@H](Cc2c[nH]cn2)C(=O)N[C@@H](CCCNC(=N)N)C(=O)N[C@@H](CCCNC(=N)N)C(=O)N[C@@H](C)C(=O)N[C@@H](CC(N)=O)C(N)=O)NC(=O)[C@H](C(C)C)NC(=O)[C@H](CCCNC(=N)N)NC1=O — monocytes (ICR mice, blood; intraperitoneal, 5 mg/kg, day 5): 2.92 ± 0.22%
O=C1NC2(CC2)COc2ncc(F)cc2[C@H]2COCCN2c2ccn3ncc1c3n2 — organ-to-brain weight ratio (Sprague-Dawley rat, female, uterus; oral, 10 mg/kg/day, 4 weeks, end of treatment): 26.8 ± 11.4%
CN(C)CCCNC(=O)C[C@H](Cc1ccc(F)cc1)NC(=O)[C@@H](Cc1ccc(Cl)cc1Cl)NC(=O)[C@H](N)Cc1ccccc1C#N — remaining compound (CD-1 mouse, liver microsomes; 1 µM, time not given, epoxide hydrolase conditions): 26%
CC[C@H](C)[C@H](NC(=O)[C@H](CCCNC(=N)N)NC(=O)[C@H](CCCCN)NC(=O)[C@H](Cc1ccc(O)cc1)NC(=O)[C@H](CC(=O)O)NC(=O)[C@H](C)NC(=O)CNC(=O)CCOCCOCCOCCNC(=O)CN1CCN(CC(=O)O)CCN(CC(=O)O)CCN(CC(=O)O)CC1)C(=O)N[C@H](C(=O)N[C@@H](CC(C)C)C(=O)N[C@@H](CCCCN)C(=O)N[C@H](C(=O)N[C@@H](CC(N)=O)C(N)=O)C(C)C)[C@@H](C)O [copper-64 labelled] — tissue uptake (ex vivo gamma counting; C57BL/6J male mice, B16-F10 tumour, lung; intravenous, 1.85 MBq, 40 min): 1.58 ± 0.229 %ID/g
Cc1ccccc1-c1ccc(-c2nc(-c3ccc(CN(C)CCCC(=O)O)c([18F])c3)no2)cc1C(F)(F)F — tracer uptake (rat, heart; 1 h): 0.26 %ID/g
CN(C)CCCNC(=O)[C@@H]1NC(=O)[C@@H]2Cc3ccc(cc3)Oc3cc4cc(c3O)-c3ccc5c(c[nH]c5c3)C[C@@H](NC(=O)C(NC(=O)CCCCCN)c3ccc(O)cc3)C(=O)N[C@H](c3ccc(O)cc3)C(=O)N[C@H]4C(=O)N[C@@H](C(=O)N2C)c2ccc(cc2)Oc2cc1ccc2O (stereo partly drawn) — thermodynamic solubility (saline; 24 h, 25 °C): 98.6 µg/mL (≈ 74.8 µM)
C=Cc1c(C)c2cc3nc(c(CC(=O)O)c4[nH]c(cc5nc(cc1[nH]2)C(C)=C5CC)c(C)c4C(=O)O)[C@@H](CCC(=O)NCCCC[C@H](NC(C)=O)C(=O)N[C@@H](Cc1ccccc1)C(=O)N[C@@H](Cc1ccccc1)C(=O)N[C@H](C(=O)N[C@@H](CC(C)C)C(=O)N[C@@H](CCCCN)C(=O)N[C@@H](CO)C(=O)NCC(=O)N[C@@H](CCC(N)=O)C(=O)N[C@@H](Cc1ccc(O)cc1)C(=O)N[C@@H](C)C(=O)N[C@@H](CO)C(=O)N[C@@H](Cc1ccc(O)cc1)C(=O)N[C@@H](Cc1c[nH]cn1)C(=O)N[C@@H](CS)C(=O)N[C@@H](Cc1c[nH]c2ccccc12)C(=O)N[C@@H](CS)C(=O)N[C@@H](Cc1c[nH]c2ccccc12)C(=O)N[C@@H](CCCNC(=N)N)C(=O)N[C@@H](CC(=O)O)C(=O)N1CCC[C@H]1C(=O)NCC(=O)N[C@@H](CCCNC(=N)N)C(=O)N[C@@H](CO)C(=O)NCC(=O)NCC(=O)N[C@@H](CO)C(=O)N[C@@H](CCCCN)C(N)=O)C(C)C)[C@@H]3C — blood concentration (mouse, blood; 12 h): 69.2 µg/mL
C=Cc1c(C)c2cc3nc(c(CC(=O)[O-])c4[n-]c(cc5nc(cc1[n-]2)C(C)=C5CC)c(C)c4C(=O)[O-])C(CCC(=O)[O-])C3C.[Cu+2].[Na+].[Na+].[Na+] (stereo not drawn) — serum albumin (Wistar rat, male; oral, 250 mg/kg daily, 28 days): 1.02 ± 0.1 g/dL
CCc1nnc(-c2c(OC)cc(-c3cnc4cc(-c5cnn(C)c5)ccn34)cc2OC)o1 — fraction unbound (plasma protein binding; human plasma): 0.017
CCCCCCCCCCCC(=O)N[C@@H](CCCNC(=N)N)C(=O)N[C@@H](Cc1c[nH]c2ccccc12)C(=O)N[C@@H](CCCCN)C(=O)N[C@H](C(=O)N[C@@H](Cc1ccccc1)C(=O)N[C@@H](CCCCN)C(=O)N[C@@H](CCCCN)C(=O)N[C@H](C(=O)N[C@@H](CCC(=O)O)C(=O)N[C@@H](CCCCN)C(=O)N[C@H](C(=O)NCC(=O)N[C@@H](CCC(N)=O)C(=O)N[C@@H](CC(N)=O)C(=O)N[C@H](C(=O)N[C@@H](CCCNC(=N)N)C(=O)N[C@@H](CC(=O)O)C(=O)NCC(=O)N[C@H](C(=O)N[C@H](C(=O)N[C@@H](CCCCN)C(=O)N[C@@H](C)C(=O)NCC(=O)N1CCC[C@H]1C(=O)N[C@@H](C)C(=O)N[C@H](C(=O)N[C@@H](C)C(=O)N[C@H](C(=O)N[C@H](C(=O)NCC(=O)N[C@@H](CCC(N)=O)C(=O)N[C@@H](C)C(=O)N[C@@H](C)C(=O)N[C@H](C(=O)N[C@H](C(N)=O)[C@@H](C)CC)[C@@H](C)O)C(C)C)C(C)C)C(C)C)C(C)C)[C@@H](C)CC)[C@@H](C)CC)C(C)C)[C@@H](C)CC)[C@@H](C)CC — hemolysis (mouse erythrocytes; 32 µM, 1 h, 37 °C): < 8%

Some of these lines once more:
CC[C@H](C)[C@H](NC(=O)[C@H](CCCNC(=N)N)NC(=O)[C@H](CCCCN)NC(=O)[C@H](Cc1ccc(O)cc1)NC(=O)[C@H](CC(=O)O)NC(=O)[C@H](C)NC(=O)CNC(=O)CCOCCOCCOCCNC(=O)CN1CCN(CC(=O)O)CCN(CC(=O)O)CCN(CC(=O)O)CC1)C(=O)N[C@H](C(=O)N[C@@H](CC(C)C)C(=O)N[C@@H](CCCCN)C(=O)N[C@H](C(=O)N[C@@H](CC(N)=O)C(N)=O)C(C)C)[C@@H](C)O [copper-64 labelled] — tissue uptake (ex vivo gamma counting; C57BL/6J male mice, B16-F10 tumour, lung; intravenous, 1.85 MBq, 40 min): 1.58 ± 0.229 %ID/g
O=C1NC2(CC2)COc2ncc(F)cc2[C@H]2COCCN2c2ccn3ncc1c3n2 — organ-to-brain weight ratio (Sprague-Dawley rat, female, uterus; oral, 10 mg/kg/day, 4 weeks, end of treatment): 26.8 ± 11.4%
